{"data": "Measured values collected from several papers", "U2AF2": "U2AF2 148-342 (Homo sapiens, UniProt P26368)", "B1": "S100A8 (Homo sapiens, UniProt P05109); sequence looked up; chain MLTELEKALNSIIDVYHKYSLIKGNFHAVYRDDLKKLLETECPQYIRKKGADVWFKELDINTDGAVNFQEFLILVIKMGVAAHKKSHEESHKE", "B2": "unc-83 1-305 (Caenorhabditis elegans, UniProt Q23064); sequence looked up; chain MDVMDSFSEVEMPNDISSEDHLLKVIESSAEEVDIFLENCSSLYNLILDSLHNLTSKTISCECLDEMTSTLEKSAKKILAERPEAENSVLLRLNTICCAMDQLRVQHNSRMMSGADSDTASSARSSTSSSTGEMRLWLHEVERRLEINEKRIRVEPNLQLLLSDQQALQLEIQHEGQLLVNRLNKQIKDDHDSDSSEEEKRKTCVDAIRKRWHTIYLNSLSLVCRIEELINHQQASEDSESDPDLVGPPIKRARIRTVGHLTASDTEESEADEEDRHSQTETVVTEDDNVLPFAENEYESIMDGR", "B3": "S100A3 (Homo sapiens, UniProt P33764); sequence looked up; chain MARPLEQAVAAIVCTFQEYAGRCGDKYKLCQAELKELLQKELATWTPTEFRECDYNKFMSVLDTNKDCEVDFVEYVRSLACLCLYCHEYFKDCPSEPPCSQ", "B4": "dlg1 1-97 Q26A (Drosophila melanogaster, UniProt P31007); sequence looked up; chain MPVKKQEAHRALELLEDYHARLSEPADRALRIAIERVIRIFKSRLFQALLDIQEFYELTLLDDSKSIQQKTAETLQIATKWEKDGQAVKIADFIKSS", "B5": "Ikbkg 1-355 C54S/K285N (Mus musculus, UniProt O88522); sequence looked up; chain MNKHPWKNQLSEMVQPSGGPAEDQDMLGEESSLGKPAMLHLPSEQGTPETLQRSLEENQELRDAIRQSNQMLRERCEELLHFQVSQREEKEFLMCKFQEARKLVERLSLEKLDLRSQREQALKELEQLKKCQQQMAEDKASVKAQVTSLLGELQESQSRLEAATKDRQALEGRIRAVSEQVRQLESEREVLQQQHSVQVDQLRMQNQSVEAALRMERQAASEEKRKLAQLQAAYHQLFQDYDSHIKSSKGMQLEDLRQQLQQAEEALVAKQELIDKLKEEAEQHNIVMETVPVLKAQADIYKADFQAERHAREKLVEKKEYLQEQLEQLQREFNKLKVGCHESARIEDMRKRHVE", "B6": "histone H1.3 human; sequence looked up; chain SETAPLAPTIPAPAEKTPVKKKAKKAGATAGKRKASGPPVSELITKAVAASKERSGVSLAALKKALAAAGYDVEKNNSRIKLGLKSLVSKGTLVQTKGTGASGSFKLNKKAASGEGKPKAKKAGAAKPRKPAGAAKKPKKVAGAATPKKSIKKTPKKVKKPATAAGTKKVAKSAKKVKTPQPKKAAKSPAKAKAPKPKAAKPKSGKPKVTKAKKAAPKKK", "B7": "NUP60 48-162 (Saccharomyces cerevisiae, UniProt P39705); sequence looked up; chain VSPRNNVANKQPRNESFNRRISSMPGGYFHSEISPDSTVNRSVVVSAVGEARNDIENKEEEYDETHETNISNAKLANFFSKKGNEPLSEIEIEGVMSLLQKSSKSMITSEGEQKS", "B8": "ADRB1 W183A (Homo sapiens, UniProt P08588); sequence looked up; chain MGAGVLVLGASEPGNLSSAAPLPDGAATAARLLVPASPPASLLPPASESPEPLSQQWTAGMGLLMALIVLLIVAGNVLVIVAIAKTPRLQTLTNLFIMSLASADLVMGLLVVPFGATIVVWGRWEYGSFFCELWTSVDVLCVTASIETLCVIALDRYLAITSPFRYQSLLTRARARGLVCTVAAISALVSFLPILMHWWRAESDEARRCYNDPKCCDFVTNRAYAIASSVVSFYVPLCIMAFVYLRVFREAQKQVKKIDSCERRFLGGPARPPSPSPSPVPAPAPPPGPPRPAAAAATAPLANGRAGKRRPSRLVALREQKALKTLGIIMGVFTLCWLPFFLANVVKAFHRELVPDRLFVFFNWLGYANSAFNPIIYCRSPDFRKAFQGLLCCARRAARRRHATHGDRPRASGCLARPGPPPSPGAASDDDDDDVVGATPPARLLEPWAGCNGGAAADSDSSLDEPCRPGFASESKV", "B9": "ADAR1 127-end 127-1226 D1023A (human, UniProt P55265); sequence looked up; chain SSHFQELSIYQDQEQRILKFLEELGEGKATTAHDLSGKLGTPKKEINRVLYSLAKKGKLQKEAGTPPLWKIAVSTQAWNQHSGVVRPDGHSQGAPNSDPSLEPEDRNSTSVSEDLLEPFIAVSAQAWNQHSGVVRPDSHSQGSPNSDPGLEPEDSNSTSALEDPLEFLDMAEIKEKICDYLFNVSDSSALNLAKNIGLTKARDINAVLIDMERQGDVYRQGTTPPIWHLTDKKRERMQIKRNTNSVPETAPAAIPETKRNAEFLTCNIPTSNASNNMVTTEKVENGQEPVIKLENRQEARPEPARLKPPVHYNGPSKAGYVDFENGQWATDDIPDDLNSIRAAPGEFRAIMEMPSFYSHGLPRCSPYKKLTECQLKNPISGLLEYAQFASQTCEFNMIEQSGPPHEPRFKFQVVINGREFPPAEAGSKKVAKQDAAMKAMTILLEEAKAKDSGKSEESSHYSTEKESEKTAESQTPTPSATSFFSGKSPVTTLLECMHKLGNSCEFRLLSKEGPAHEPKFQYCVAVGAQTFPSVSAPSKKVAKQMAAEEAMKALHGEATNSMASDNQPEGMISESLDNLESMMPNKVRKIGELVRYLNTNPVGGLLEYARSHGFAAEFKLVDQSGPPHEPKFVYQAKVGGRWFPAVCAHSKKQGKQEAADAALRVLIGENEKAERMGFTEVTPVTGASLRRTMLLLSRSPEAQPKTLPLTGSTFHDQIAMLSHRCFNTLTNSFQPSLLGRKILAAIIMKKDSEDMGVVVSLGTGNRCVKGDSLSLKGETVNDCHAEIISRRGFIRFLYSELMKYNSQTAKDSIFEPAKGGEKLQIKKTVSFHLYISTAPCGDGALFDKSCSDRAMESTESRHYPVFENPKQGKLRTKVENGEGTIPVESSDIVPTWAGIRLGERLRTMSCSDKILRWNVLGLQGALLTHFLQPIYLKSVTLGYLFSQGHLTRAICCRVTRDGSAFEDGLRHPFIVNHPKVGRVSIYDSKRQSGKTKETSVNWCLADGYDLEILDGTRGTVDGPRNELSRVSKKNIFLLFKKLCSFRYRRDLLRLSYGEAKKAARDYETAKNYFKKGLKDMGYGNWISKPQEEKNFYLCPV", "B10": "clcA 1-465 C85A/A237C (Escherichia coli, UniProt P37019); chain MKTDTPSLETPQAARLRRRQLIRQLLERDKTPLAILFMAAVVGTLVGLAAVAFDKGVAWLQNQRMGALVHTADNYPLLLTVAFLASAVLAMFGYFLVRKYAPEAGGSGIPEIEGALEDQRPVRWWRVLPVKFFGGLGTLGGGMVLGREGPTVQIGGNIGRMVLDIFRLKGDEARHTLLATGAAAGLAAAFNAPLAGILFIIEEMRPQFRYTLISIKAVFIGVIMSTIMYRIFNHEVCLIDVGKLSDAPLNTLWLYLILGIIFGIFGPIFNKWVLGMQDLLHRVHGGNITKWVLMGGAIGGLCGLLGFVAPATSGGGFNLIPIATAGNFSMGMLVFIFVARVITTLLCFSSGAPGGIFAPMLALGTVLGTAFGMVAVELFPQYHLEAGTFAIAGMGALLAASIRAPLTGIILVLEMTDNYQLILPMIITGLGATLLAQFTGGKPLYSAILARTLAKQEAEQLARSK", "B11": "human RAB2A; sequence looked up; chain AYAYLFKYIIIGDTGVGKSCLLLQFTDKRFQPVHDLTIGVEFGARMITIDGKQIKLQIWDTAGQESFRSITRSYYRGAAGALLVYDITRRDTFNHLTTWLEDARQHSNSNMVIMLIGNKSDLESRREVKKEEGEAFAREHGLIFMETSAKTASNVEEAFINTAKEIYEKIQEGVFDINNEANGIKIGPQHAATNATHAGNQGGQQAGGGCC", "note": "Each line is one published result; not all experiments were run side by side. Numbers after ± are the reported error.", "sequence of UniProt P26368 (whole entry, looked up)": "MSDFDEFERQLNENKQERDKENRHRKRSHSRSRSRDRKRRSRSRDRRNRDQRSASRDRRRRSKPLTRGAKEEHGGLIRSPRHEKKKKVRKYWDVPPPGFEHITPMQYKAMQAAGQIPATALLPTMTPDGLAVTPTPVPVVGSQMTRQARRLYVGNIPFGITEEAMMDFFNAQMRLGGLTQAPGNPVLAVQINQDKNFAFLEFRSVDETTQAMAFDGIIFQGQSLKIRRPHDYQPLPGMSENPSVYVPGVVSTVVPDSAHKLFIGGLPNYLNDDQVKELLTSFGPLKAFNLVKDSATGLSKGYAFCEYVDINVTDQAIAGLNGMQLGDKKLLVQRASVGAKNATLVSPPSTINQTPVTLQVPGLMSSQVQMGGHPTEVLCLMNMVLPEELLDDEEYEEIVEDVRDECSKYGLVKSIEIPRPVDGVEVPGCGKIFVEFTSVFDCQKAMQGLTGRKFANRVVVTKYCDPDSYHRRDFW"}
{"Molecule": "B1 (S100A8)", "target or system": "itself", "assay": "AUC", "setting": "without Ca2+ unclear, together with: Ca2+", "measurement": "Kd", "value": "6 ± 2 µM"}
{"Molecule": "B2 (unc-83 1-305)", "target or system": "itself", "assay": "mass photometry", "measurement": "dimer particles", "value": "100 % peak"}
{"Molecule": "CUGUUCAUU (ssRNA)", "target or system": "U2AF2", "assay": "sequencing of bound RNA", "system": "RNA", "setting": "motif only", "measurement": "Kd", "value": "9.98 µM"}
{"Molecule": "B3 (S100A3)", "target or system": "itself", "assay": "AUC", "measurement": "Kd", "value": "30 ± 6 µM"}
{"Molecule": "B4 (dlg1 1-97 Q26A)", "target or system": "itself", "assay": "SEC", "measurement": "binding", "value": "binds"}
{"Molecule": "CUGGUUUCA (ssRNA)", "target or system": "U2AF2", "assay": "sequencing of bound RNA", "system": "RNA", "setting": "motif only", "measurement": "Kd", "value": "1.66 µM"}
{"Molecule": "B5 (Ikbkg 1-355 C54S/K285N)", "target or system": "itself", "assay": "AUC", "measurement": "Kd", "value": "25.6 µM"}
{"Molecule": "B6 (histone H1.3 human)", "target or system": "CYB5R4 knockout human cells", "assay": "PP4 interaction, 3xFLAG-PP4C IP-MS", "setting": "concentration not given", "how to read": "relative to: CYB5R4 KO over parental", "measurement": "log2 fold change", "value": -1.68}
{"Molecule": "B7 (NUP60 48-162)", "target or system": "itself", "assay": "ITC", "setting": "dimer dissociation", "measurement": "Kd", "value": "76.3 µM"}
{"Molecule": "B8 (ADRB1 W183A)", "target or system": "itself", "assay": "BRET", "system": "HEK293", "setting": "24 h, together with: alprenolol 10 µM", "measurement": "BRET50", "value": "0.56 GFP/Rluc ratio"}
{"Molecule": "B9 (ADAR1 127-end 127-1226 D1023A)", "target or system": "itself", "assay": "SEC", "measurement": "binding", "value": "binds"}
{"Molecule": "B10 (clcA 1-465 C85A/A237C)", "target or system": "itself", "assay": "SEC", "measurement": "binding", "value": "binds"}
{"Molecule": "B11 (human RAB2A)", "target or system": "CYB5R4 knockout human cells", "assay": "PP4 interaction, 3xFLAG-PP4C IP-MS", "setting": "concentration not given", "how to read": "relative to: CYB5R4 KO over parental", "measurement": "log2 fold change", "value": -0.2}
{"note": "For quick reference, copied from above:"}
{"Molecule": "B7 (NUP60 48-162)", "target or system": "itself", "assay": "ITC", "setting": "dimer dissociation", "measurement": "Kd", "value": "76.3 µM"}
